Experimental data from different studies.
Parts stem from different laboratories: compare values within a part only.
UniProt P24723, sequence (whole entry, looked up): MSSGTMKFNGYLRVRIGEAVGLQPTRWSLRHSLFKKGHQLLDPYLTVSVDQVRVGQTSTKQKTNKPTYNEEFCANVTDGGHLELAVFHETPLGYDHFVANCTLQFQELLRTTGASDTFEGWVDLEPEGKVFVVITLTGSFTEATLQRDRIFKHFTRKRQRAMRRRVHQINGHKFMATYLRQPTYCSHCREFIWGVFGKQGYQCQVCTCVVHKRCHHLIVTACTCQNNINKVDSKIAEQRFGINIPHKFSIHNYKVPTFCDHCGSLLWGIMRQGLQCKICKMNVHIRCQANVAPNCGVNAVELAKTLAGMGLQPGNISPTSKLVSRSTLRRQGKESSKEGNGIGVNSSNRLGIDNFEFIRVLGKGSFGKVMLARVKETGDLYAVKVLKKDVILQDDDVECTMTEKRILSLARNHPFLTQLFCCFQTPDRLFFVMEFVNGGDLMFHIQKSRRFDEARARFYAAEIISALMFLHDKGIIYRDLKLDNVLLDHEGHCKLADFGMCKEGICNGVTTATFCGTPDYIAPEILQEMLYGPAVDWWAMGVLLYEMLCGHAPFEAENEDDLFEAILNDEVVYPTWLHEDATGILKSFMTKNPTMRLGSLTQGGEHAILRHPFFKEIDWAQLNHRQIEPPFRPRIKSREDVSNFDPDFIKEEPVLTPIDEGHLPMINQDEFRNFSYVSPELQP
UniProt P21554, sequence (whole entry, looked up): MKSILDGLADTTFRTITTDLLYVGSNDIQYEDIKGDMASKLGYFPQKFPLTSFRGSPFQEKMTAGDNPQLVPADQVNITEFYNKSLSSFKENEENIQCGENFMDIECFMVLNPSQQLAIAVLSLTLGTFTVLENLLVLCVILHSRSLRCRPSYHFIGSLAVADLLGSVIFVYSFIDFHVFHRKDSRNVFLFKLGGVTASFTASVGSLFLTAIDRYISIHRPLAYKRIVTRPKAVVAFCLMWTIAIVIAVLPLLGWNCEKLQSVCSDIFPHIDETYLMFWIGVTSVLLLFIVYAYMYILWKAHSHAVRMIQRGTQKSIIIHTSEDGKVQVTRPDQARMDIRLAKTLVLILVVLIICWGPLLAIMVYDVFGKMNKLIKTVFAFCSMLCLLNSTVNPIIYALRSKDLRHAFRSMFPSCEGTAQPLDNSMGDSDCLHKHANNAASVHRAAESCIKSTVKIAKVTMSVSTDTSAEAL
UniProt P29597, sequence (whole entry, looked up): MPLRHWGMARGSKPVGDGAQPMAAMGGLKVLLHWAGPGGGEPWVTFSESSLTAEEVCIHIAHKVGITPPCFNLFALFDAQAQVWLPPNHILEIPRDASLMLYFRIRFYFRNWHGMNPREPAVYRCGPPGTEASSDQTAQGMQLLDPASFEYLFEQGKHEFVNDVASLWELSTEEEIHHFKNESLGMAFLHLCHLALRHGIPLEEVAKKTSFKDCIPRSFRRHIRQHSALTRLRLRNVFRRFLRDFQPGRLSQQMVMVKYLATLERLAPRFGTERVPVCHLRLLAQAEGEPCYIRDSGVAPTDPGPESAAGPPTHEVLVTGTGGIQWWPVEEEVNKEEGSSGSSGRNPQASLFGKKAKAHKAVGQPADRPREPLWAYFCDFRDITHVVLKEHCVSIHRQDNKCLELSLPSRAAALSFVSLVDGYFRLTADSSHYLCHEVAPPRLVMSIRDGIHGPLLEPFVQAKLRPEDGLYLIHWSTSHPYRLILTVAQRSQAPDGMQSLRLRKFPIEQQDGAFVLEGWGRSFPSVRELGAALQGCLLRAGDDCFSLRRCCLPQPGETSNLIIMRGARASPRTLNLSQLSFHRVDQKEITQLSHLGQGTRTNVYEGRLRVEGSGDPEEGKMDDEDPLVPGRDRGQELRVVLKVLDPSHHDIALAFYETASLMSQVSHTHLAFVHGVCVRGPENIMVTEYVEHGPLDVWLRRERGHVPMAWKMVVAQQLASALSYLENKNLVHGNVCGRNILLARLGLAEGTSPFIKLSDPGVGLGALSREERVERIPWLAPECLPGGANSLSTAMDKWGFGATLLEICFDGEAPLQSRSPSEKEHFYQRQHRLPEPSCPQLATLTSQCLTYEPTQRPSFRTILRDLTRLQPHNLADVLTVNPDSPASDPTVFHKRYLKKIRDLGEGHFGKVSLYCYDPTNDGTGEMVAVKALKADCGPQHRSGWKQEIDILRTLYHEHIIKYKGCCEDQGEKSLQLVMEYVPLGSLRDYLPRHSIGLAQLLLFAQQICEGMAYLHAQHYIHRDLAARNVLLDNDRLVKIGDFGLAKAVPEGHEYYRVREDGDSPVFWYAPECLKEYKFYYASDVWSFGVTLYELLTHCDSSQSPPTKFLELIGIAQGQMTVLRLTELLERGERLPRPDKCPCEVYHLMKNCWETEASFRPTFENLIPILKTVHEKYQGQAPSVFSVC
UniProt Q8WTQ7, sequence (whole entry, looked up): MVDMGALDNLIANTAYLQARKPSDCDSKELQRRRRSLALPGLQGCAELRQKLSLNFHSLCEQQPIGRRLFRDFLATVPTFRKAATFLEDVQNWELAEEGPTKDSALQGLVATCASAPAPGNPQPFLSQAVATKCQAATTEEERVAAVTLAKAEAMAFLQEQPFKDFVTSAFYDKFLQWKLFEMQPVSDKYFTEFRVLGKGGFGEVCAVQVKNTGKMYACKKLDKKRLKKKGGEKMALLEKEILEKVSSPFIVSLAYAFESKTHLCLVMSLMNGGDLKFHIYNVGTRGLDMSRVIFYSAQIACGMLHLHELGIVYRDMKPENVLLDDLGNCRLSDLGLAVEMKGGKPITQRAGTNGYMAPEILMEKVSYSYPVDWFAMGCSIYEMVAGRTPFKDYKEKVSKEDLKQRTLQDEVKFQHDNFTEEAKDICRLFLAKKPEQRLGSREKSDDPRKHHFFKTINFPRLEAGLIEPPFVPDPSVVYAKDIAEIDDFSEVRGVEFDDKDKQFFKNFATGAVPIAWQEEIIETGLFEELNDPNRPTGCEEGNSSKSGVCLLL
UniProt P41240, sequence (whole entry, looked up): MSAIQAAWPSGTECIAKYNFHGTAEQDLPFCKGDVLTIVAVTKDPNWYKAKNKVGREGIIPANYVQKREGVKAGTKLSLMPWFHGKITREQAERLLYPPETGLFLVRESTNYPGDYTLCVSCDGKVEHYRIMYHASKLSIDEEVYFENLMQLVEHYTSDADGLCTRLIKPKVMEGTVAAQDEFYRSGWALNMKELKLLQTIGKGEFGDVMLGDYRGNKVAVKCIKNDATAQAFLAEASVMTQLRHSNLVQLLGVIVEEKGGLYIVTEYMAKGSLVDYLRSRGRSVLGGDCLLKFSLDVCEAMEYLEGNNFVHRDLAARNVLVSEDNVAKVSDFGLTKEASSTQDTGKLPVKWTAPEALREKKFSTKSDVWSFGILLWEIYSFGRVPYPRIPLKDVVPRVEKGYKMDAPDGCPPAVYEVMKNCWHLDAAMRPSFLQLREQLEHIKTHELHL
UniProt P41231, sequence (whole entry, looked up): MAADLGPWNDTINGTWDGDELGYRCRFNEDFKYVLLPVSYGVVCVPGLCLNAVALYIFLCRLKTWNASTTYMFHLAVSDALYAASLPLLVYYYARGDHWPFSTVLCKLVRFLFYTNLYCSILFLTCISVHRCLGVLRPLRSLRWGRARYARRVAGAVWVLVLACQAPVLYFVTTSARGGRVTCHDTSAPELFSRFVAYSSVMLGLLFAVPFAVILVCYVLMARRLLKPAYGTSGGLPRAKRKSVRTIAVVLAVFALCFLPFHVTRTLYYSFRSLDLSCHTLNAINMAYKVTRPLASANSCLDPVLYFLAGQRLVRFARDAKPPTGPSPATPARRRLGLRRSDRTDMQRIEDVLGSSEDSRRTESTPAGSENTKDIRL
UniProt P35372, sequence (whole entry, looked up): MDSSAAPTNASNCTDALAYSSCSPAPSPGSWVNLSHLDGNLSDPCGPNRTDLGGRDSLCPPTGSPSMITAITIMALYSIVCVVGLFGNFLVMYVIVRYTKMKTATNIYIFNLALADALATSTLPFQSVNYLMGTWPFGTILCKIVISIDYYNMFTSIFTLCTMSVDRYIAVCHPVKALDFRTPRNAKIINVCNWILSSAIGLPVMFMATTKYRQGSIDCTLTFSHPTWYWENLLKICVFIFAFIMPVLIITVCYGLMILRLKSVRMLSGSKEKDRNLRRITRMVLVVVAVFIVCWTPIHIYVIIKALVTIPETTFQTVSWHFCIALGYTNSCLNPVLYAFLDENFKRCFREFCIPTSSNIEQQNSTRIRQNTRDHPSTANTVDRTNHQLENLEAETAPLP
UniProt Q9H3N8, sequence (whole entry, looked up): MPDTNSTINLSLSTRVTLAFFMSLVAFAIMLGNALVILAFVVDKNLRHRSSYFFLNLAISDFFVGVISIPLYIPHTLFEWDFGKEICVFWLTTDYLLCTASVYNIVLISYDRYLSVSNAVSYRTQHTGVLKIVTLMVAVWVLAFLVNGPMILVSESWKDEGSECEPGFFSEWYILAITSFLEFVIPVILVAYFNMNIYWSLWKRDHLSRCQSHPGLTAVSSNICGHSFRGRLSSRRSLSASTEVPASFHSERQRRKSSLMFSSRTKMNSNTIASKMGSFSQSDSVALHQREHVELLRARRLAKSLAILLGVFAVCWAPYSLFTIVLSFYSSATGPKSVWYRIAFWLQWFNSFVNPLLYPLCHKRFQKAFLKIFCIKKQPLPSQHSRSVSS

Set 1 — SMILES: CC(C)CN(C)c1nc(N)c(C(=O)N=C(N)N)nc1Cl; read-out: β-arrestin recruitment; action: agonist; technique: PRESTO-Tango; concentration: 10 µM; relative to: untreated
target	fold over basal
Mu-type opioid receptor (OPRM1, Homo sapiens, UniProt P35372)	9.73
ADGRG1 (Homo sapiens, UniProt Q9Y653)	0.84
2-oxoglutarate receptor 1 (OXGR1, Homo sapiens, UniProt Q96P68)	1.26
Somatostatin receptor type 2 (SSTR2, Homo sapiens, UniProt P30874)	0.69
Histamine H4 receptor (HRH4, Homo sapiens, UniProt Q9H3N8)	0.77 fold
P2Y purinoceptor 2 (P2RY2, Homo sapiens, UniProt P41231)	0.65
Probable G-protein coupled receptor 34 (Homo sapiens, UniProt Q9UPC5)	0.9
5-hydroxytryptamine receptor 2C (HTR2C, Homo sapiens, UniProt P28335, I156V/I160V)	0.45
Cannabinoid receptor 1 (CNR1, Homo sapiens, UniProt P21554)	0.75
C-X-C chemokine receptor type 3 (CXCR3, Homo sapiens, UniProt P49682)	0.85
G-protein coupled receptor 68 (GPR68, Homo sapiens, UniProt Q15743)	0.61
Free fatty acid receptor 2 (FFAR2, Homo sapiens, UniProt O15552)	0.95 fold

Set 2 — species: human; sample: microsomes or S9; concentration: 2 µM; time: 0.5 h
SMILES	remaining compound
CC(C)(CCS(C)(=O)=O)CNc1cc(C#N)nc2ccccc12	80.7%
COCCc1noc(C(C)n2ccnc2-c2cc(F)cc(F)c2)n1 (stereo not drawn)	84.5%
CCOc1cc(=O)n2c(c1C(=O)Nc1ccc3c(c1)OCO3)CCCC2	97.7%
CNC(=O)CCC(=O)C1=C(NC)CC(C)(C)CC1=O	83.4%
CCOCCOC(=O)C(C)Oc1ccc(Oc2ncc(Cl)cc2Cl)cc1 (stereo not drawn)	0.0908%
CC(C(=O)N(C)C)S(=O)(=O)N1CCN(C)c2ccncc21 (stereo not drawn)	> 100%
Cc1ccc(S(=O)(=O)NCc2ccccc2)c(C)c1N(C)S(=O)(=O)c1ccccc1	15.6%
COC(=O)c1c(C)n(C(C)=O)c2ccc(NS(=O)(=O)c3ccc(F)cc3F)cc12	0.213%
CC(C)(CNC(=O)[C@@H]1OCC[C@@H]1Cn1cccn1)C1CCOCC1	54.5%
CC(=O)c1c([S+]([O-])CCC(C)C)[nH]c2c(Cc3ccccc3)cccc2c1=O (stereo not drawn)	0.061%
CCOC(=O)c1ccc(Nc2nc3ccccc3n3cnnc23)cc1	82.1%

Set 3 — action: inhibitor; concentration: 10 µM; relative to: control
Target: Diamine acetyltransferase 1 (Homo sapiens, UniProt P21673)
Target sequence (P21673 1-171): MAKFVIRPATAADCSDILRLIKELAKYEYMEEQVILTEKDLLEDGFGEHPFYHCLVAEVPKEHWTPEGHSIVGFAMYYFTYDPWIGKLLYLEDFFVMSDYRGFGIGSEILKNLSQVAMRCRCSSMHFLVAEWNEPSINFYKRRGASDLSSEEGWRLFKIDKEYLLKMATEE
Compound	remaining activity
C[C@@H]1C(=O)O[C@H]2[C@@H](O)[C@@]34[C@H]5C[C@@H](C(C)(C)C)[C@]36[C@@H](OC(=O)[C@@H]6O)O[C@@]4(C(=O)O5)[C@@]12O	59.4%
O=C(/C=C/c1ccc(O)c(O)c1)O[C@@H]1C[C@](OC(=O)/C=C/c2ccc(O)c(O)c2)(C(=O)O)C[C@@H](O)[C@H]1O	75.8%
O=C(/C=C/c1ccc(O)cc1)c1ccc(O)cc1O	124%
O=C(O)[C@H]1O[C@@H](Oc2cc(O)c3c(=O)cc(-c4ccccc4)oc3c2)[C@H](O)[C@@H](O)[C@@H]1O	96.2%
CC1=CC[C@@](O)(C(C)C)CC1	99.5%
O=C1c2c(O)cc(O)cc2O[C@@H](c2ccc(O)cc2)[C@H]1[C@@H]1C(=O)c2c(O)cc(O)cc2O[C@@H]1c1ccc(O)cc1	99.1%
O=C(O)c1cccnc1	97.3%
CCCCCCCCCCCC(=O)O	86.1%
O=C(O)C[C@H](O)C(=O)O	88.3%
CC(=O)O[C@@H]1C[C@H]2CC[C@]1(C)C2(C)C	77.7%
CC(C)=CCc1c(-c2ccc(O)cc2O)oc2c([C@H]3C=C(C)C[C@@H](c4ccc(O)cc4O)[C@@H]3C(=O)c3ccc(O)cc3O)c(O)cc(O)c2c1=O	86.7%
O=C(O)CCc1cccc(O)c1	89.8%

Set 4 — read-out: cell-free assay; technique: competition with immobilised ligand; concentration: 1 µM
SMILES: O=C(Nc1cccnn1)N1CCC(=Cc2cccc(Oc3ccc(C(F)(F)F)cn3)c2)CC1
target	remaining binding
Cyclin-dependent kinase 16 (CDK16, Homo sapiens, UniProt Q00536)	100%
Serine/threonine-protein kinase pim-3 (PIM3, Homo sapiens, UniProt Q86V86)	79%
Mitogen-activated protein kinase 14 (MAPK14, Homo sapiens, UniProt Q16539)	100%
Fibroblast growth factor receptor 3 (FGFR3, Homo sapiens, UniProt P22607, G697C)	100%
Tyrosine-protein kinase receptor Tie-1 (TIE1, Homo sapiens, UniProt P35590)	100%
Rhodopsin kinase GRK7 (GRK7, Homo sapiens, UniProt Q8WTQ7)	100%
Myosin-IIIa (MYO3A, Homo sapiens, UniProt Q8NEV4)	100%
Tyrosine-protein kinase CSK (CSK, Homo sapiens, UniProt P41240)	100%
Myosin-IIIb (MYO3B, Homo sapiens, UniProt Q8WXR4)	100%
Tyrosine-protein kinase ABL1, non-phosphorylated (ABL1, Homo sapiens, UniProt P00519, Q252H)	75%
Interleukin-1 receptor-associated kinase 1 (IRAK1, Homo sapiens, UniProt P51617)	100%
Protein kinase C eta type (PRKCH, Homo sapiens, UniProt P24723)	77%
Serine/threonine-protein kinase Nek1 (NEK1, Homo sapiens, UniProt Q96PY6)	98%
Ribosomal protein S6 kinase alpha-5, N-terminal kinase domain (RPS6KA5, Homo sapiens, UniProt O75582)	71%
Receptor tyrosine-protein kinase erbB-2 (ERBB2, Homo sapiens, UniProt P04626)	72%
NUAK family SNF1-like kinase 2 (NUAK2, Homo sapiens, UniProt Q9H093)	88%
Microtubule-associated serine/threonine-protein kinase 1 (MAST1, Homo sapiens, UniProt Q9Y2H9)	100%
Non-receptor tyrosine-protein kinase TYK2, JH2 (TYK2, Homo sapiens, UniProt P29597)	100%
Tyrosine-protein kinase ABL1, phosphorylated (ABL1, Homo sapiens, UniProt P00519, F317L)	94%
Serine/threonine-protein kinase 25 (STK25, Homo sapiens, UniProt O00506)	100%
G protein-coupled receptor kinase 3 (GRK3, Homo sapiens, UniProt P35626)	100%
Proto-oncogene tyrosine-protein kinase receptor Ret (RET, Homo sapiens, UniProt P07949, V804L)	86%
Serine/threonine-protein kinase TBK1 (TBK1, Homo sapiens, UniProt Q9UHD2)	100%
Serine/threonine-protein kinase PAK 6 (PAK6, Homo sapiens, UniProt Q9NQU5)	100%
Dual specificity protein kinase CLK3 (CLK3, Homo sapiens, UniProt P49761)	100%

Excerpt of the above (set 1):
target	fold over basal
5-hydroxytryptamine receptor 2C (HTR2C, Homo sapiens, UniProt P28335, I156V/I160V)	0.45
Histamine H4 receptor (HRH4, Homo sapiens, UniProt Q9H3N8)	0.77 fold
2-oxoglutarate receptor 1 (OXGR1, Homo sapiens, UniProt Q96P68)	1.26
Probable G-protein coupled receptor 34 (Homo sapiens, UniProt Q9UPC5)	0.9
Somatostatin receptor type 2 (SSTR2, Homo sapiens, UniProt P30874)	0.69
P2Y purinoceptor 2 (P2RY2, Homo sapiens, UniProt P41231)	0.65
G-protein coupled receptor 68 (GPR68, Homo sapiens, UniProt Q15743)	0.61
ADGRG1 (Homo sapiens, UniProt Q9Y653)	0.84
